Measured values gathered from unrelated publications.
Each line is one published result; not all experiments were run side by side.
Organism: Candida albicans

CCCCCCC[C@@H]1CC(=O)N[C@H](CC(C)C)C(=O)N[C@@H](CO)C(=O)N[C@@H]([C@@H](C)O)C(=O)N[C@H](Cc2ccccc2)C(=O)N[C@@H](C(C)C)C(=O)O1  MIC (fungal growth, XTT; SC5314): > 100 µM
CC(C)C[C@H](NC(=O)[C@H](CCCCN)NC(=O)[C@H](CO)NC(=O)[C@H](C)NC(=O)[C@H](C)NC(=O)CNC(=O)[C@H](CC(C)C)NC(=O)[C@H](CCCCN)NC(=O)[C@H](CC(C)C)NC(=O)[C@H](CC(C)C)NC(=O)[C@H](CC(C)C)NC(=O)CNC(=O)[C@H](CO)NC(=O)[C@H](Cc1c[nH]c2ccccc12)NC(=O)[C@@H](N)CCCCN)C(N)=O  MIC (broth microdilution; ATCC 10231; 44 h, 37 °C): 100 µM
CC[C@H](C)[C@H](NC(=O)[C@H](Cc1c[nH]c2ccccc12)NC(=O)[C@@H](N)CCCNC(=N)N)C(=O)N[C@@H](CCCNC(=N)N)C(=O)N1CCC[C@H]1C(=O)N[C@@H](CCSC)C(=O)N[C@@H](Cc1c[nH]c2ccccc12)C(N)=O  MIC: 512 µg/mL
N=C(N)NCCC[C@H](NC(=O)[C@H](Cc1c[nH]c2ccccc12)NC(=O)[C@H](CCCNC(=N)N)NC(=O)[C@H](Cc1c[nH]c2ccccc12)NC(=O)[C@H](Cc1c[nH]c2ccccc12)NC(=O)[C@H](Cc1c[nH]c2ccccc12)NC(=O)[C@H](CCCNC(=N)N)NC(=O)[C@H](Cc1c[nH]c2ccccc12)NC(=O)[C@@H](N)CCCNC(=N)N)C(N)=O  MIC (broth microdilution; CGMCC 2.209, RPMI 1640-MOPS; 48 h, 30 °C, with: KCl 4.5 mM): 8 µM
CC[C@H](C)[C@H](NC(=O)CN)C(=O)NCC(=O)N[C@@H](C)C(=O)N[C@H](C(=O)N[C@@H](CC(C)C)C(=O)N[C@@H](CCCCN)C(=O)N[C@H](C(=O)N[C@@H](CC(C)C)C(=O)N[C@H](C(=O)N[C@H](C(=O)NCC(=O)N[C@@H](CC(C)C)C(=O)N1CCC[C@H]1C(=O)N[C@@H](C)C(=O)N[C@@H](CC(C)C)C(=O)N[C@H](C(=O)N[C@@H](CO)C(=O)N[C@@H](Cc1c[nH]c2ccccc12)C(=O)N[C@H](C(=O)N[C@@H](CCCCN)C(=O)N[C@@H](CCCNC(=N)N)C(=O)N[C@@H](CCCCN)C(=O)N[C@@H](CCCNC(=N)N)C(=O)N[C@@H](CCC(N)=O)C(=O)N[C@@H](CCC(N)=O)C(N)=O)[C@@H](C)CC)[C@@H](C)CC)[C@@H](C)O)[C@@H](C)O)C(C)C)C(C)C  MIC (broth microdilution; SP 3902, RPMI-1640; 48 h, 30 °C): 4 µM
CC[C@H](C)[C@H](NC(=O)CN)C(=O)N[C@@H](C)C(=O)N[C@@H](CCCCN)C(=O)N[C@@H](Cc1ccccc1)C(=O)N[C@H](C(=O)N[C@@H](CCCCN)C(=O)N[C@@H](CCCCN)C(=O)N[C@H](C(=O)N[C@@H](C)C(=O)N[C@@H](CCCCN)C(=O)N[C@@H](C)C(=O)N[C@@H](CC(C)C)C(=O)N[C@@H](CCCNC(=N)N)C(N)=O)[C@@H](C)CC)[C@@H](C)CC  MIC (ATCC 90029, RPMI MOPS; 24 h, pH 7.0, 33 °C): 64 µg/mL
CC[C@H](C)[C@H](NC(=O)CN)C(=O)NCC(=O)N[C@@H](C)C(=O)N[C@H](C(=O)N[C@@H](CC(C)C)C(=O)N[C@@H](CCCCN)C(=O)N[C@H](C(=O)N[C@@H](CC(C)C)C(=O)N[C@H](C(=O)N[C@H](C(=O)NCC(=O)N[C@@H](CC(C)C)C(=O)N1CCC[C@H]1C(=O)N[C@@H](C)C(=O)N[C@@H](CC(C)C)C(=O)N[C@H](C(=O)N[C@@H](CO)C(=O)N[C@@H](Cc1c[nH]c2ccccc12)C(=O)N[C@H](C(=O)N[C@@H](CCCCN)C(=O)N[C@@H](CCCNC(=N)N)C(=O)N[C@@H](CCCCN)C(=O)N[C@@H](CCCNC(=N)N)C(=O)N[C@@H](CCC(N)=O)C(=O)N[C@@H](CCC(N)=O)C(N)=O)[C@@H](C)CC)[C@@H](C)CC)[C@@H](C)O)[C@@H](C)O)C(C)C)C(C)C  MIC (broth microdilution; SP3931, RPMI 1640-MOPS; 48 h, 30 °C): 2 µM
C#Cc1ccc(O)c(C=NNC(=O)c2ccc(Br)c(Br)c2)c1  MIC (A39; 48 h): 0.5 µg/mL
O=S(=O)(c1ccc(OCC(O)CN2CCCC2)c(Cl)c1)c1ccc(OCC(O)CN2CCCC2)c(Cl)c1 (stereo not shown)  MIC (DSY654 Cdr knockout): > 128 µg/mL
N=C(N)NCCC[C@H](NC(=O)[C@H](Cc1c[nH]c2ccccc12)NC(=O)[C@H](CCCNC(=N)N)NC(=O)[C@H](Cc1c[nH]c2ccccc12)NC(=O)[C@H](Cc1c[nH]c2ccccc12)NC(=O)[C@H](Cc1c[nH]c2ccccc12)NC(=O)[C@H](CCCNC(=N)N)NC(=O)[C@H](Cc1c[nH]c2ccccc12)NC(=O)[C@H](CCCNC(=N)N)NC(=O)CN)C(N)=O  MIC (broth microdilution; CGMCC 2.209, RPMI 1640-MOPS; 48 h, 30 °C, with: NaCl 150 mM): 8 µM

Repeated from above:
CC[C@H](C)[C@H](NC(=O)CN)C(=O)NCC(=O)N[C@@H](C)C(=O)N[C@H](C(=O)N[C@@H](CC(C)C)C(=O)N[C@@H](CCCCN)C(=O)N[C@H](C(=O)N[C@@H](CC(C)C)C(=O)N[C@H](C(=O)N[C@H](C(=O)NCC(=O)N[C@@H](CC(C)C)C(=O)N1CCC[C@H]1C(=O)N[C@@H](C)C(=O)N[C@@H](CC(C)C)C(=O)N[C@H](C(=O)N[C@@H](CO)C(=O)N[C@@H](Cc1c[nH]c2ccccc12)C(=O)N[C@H](C(=O)N[C@@H](CCCCN)C(=O)N[C@@H](CCCNC(=N)N)C(=O)N[C@@H](CCCCN)C(=O)N[C@@H](CCCNC(=N)N)C(=O)N[C@@H](CCC(N)=O)C(=O)N[C@@H](CCC(N)=O)C(N)=O)[C@@H](C)CC)[C@@H](C)CC)[C@@H](C)O)[C@@H](C)O)C(C)C)C(C)C  MIC (broth microdilution; SP3931, RPMI 1640-MOPS; 48 h, 30 °C): 2 µM
CC(C)C[C@H](NC(=O)[C@H](CCCCN)NC(=O)[C@H](CO)NC(=O)[C@H](C)NC(=O)[C@H](C)NC(=O)CNC(=O)[C@H](CC(C)C)NC(=O)[C@H](CCCCN)NC(=O)[C@H](CC(C)C)NC(=O)[C@H](CC(C)C)NC(=O)[C@H](CC(C)C)NC(=O)CNC(=O)[C@H](CO)NC(=O)[C@H](Cc1c[nH]c2ccccc12)NC(=O)[C@@H](N)CCCCN)C(N)=O  MIC (broth microdilution; ATCC 10231; 44 h, 37 °C): 100 µM
